Results pooled from the literature.
Protocols differ between the studies behind these lines. ± gives the spread as reported.

CCC(=O)C(NC(=O)c1ccccc1-c1ccc(C(F)(F)F)cc1)c1cccc(C(F)(F)F)c1 (stereo not drawn) — IC50 (KHYG-1 and MICA-expressing Ba/F3; NKG2D-mediated cell killing; 6 h): > 20 µM
O=C(Cc1ccc2ccccc2c1)N[C@H](Cc1ccc(O)cc1)C(=O)N[C@H](Cc1ccccc1)C(=O)N[C@H](Cc1ccccc1)C(=O)N[C@H](Cc1ccc(O)cc1)C(=O)O — IC50 (SAOS-2; cell growth or viability, MTT): > 500 µg/mL
C=C(C(=O)OC)[C@@H]1CC[C@@]2(C)CCC(=O)C(C)=C2C1 — IC50 (human Neutrophil; elastase release, inhibitor): > 10 µM
Cc1cc(C)c(N2CCN(c3c(C)cc(C)cc3C)C2=[Se])c(C)c1.[Cl][Au] — IC50 (A-375; cell growth or viability, MTT; 72 h): 1.3 µM
COc1c(O)c(-c2c(O)c(OC)c(OC)c3c2ccc2cc(O)ccc23)c2c(c1OC)-c1ccc(O)cc1CC2 — IC50 (EA.hy 926; cell growth or viability, CCK-8; 24 h): 11.3 µM
Cc1cc(C)c(-n2ccn(-c3c(C)cc(C)cc3C)c2=[Se])c(C)c1.[Cl][Au] — IC50 (A2780 ADR; MTT; 72 h): 0.3 ± 0.03 µM
COc1cc(C(c2c(C)nn(-c3ccccc3)c2O)c2c(C)nn(-c3ccccc3)c2O)cc(OC)c1OC — IC50 (various human cancer cell lines; cell growth, MTT): 5.45 to 18.3 µM
CNC(=O)c1cc(Oc2ccc(NC(=O)c3cc(-c4cccc(COC(=O)CCC(=O)OC5OC6OC7(C)CCC8C(C)CCC(C5C)C68OO7)c4)ccn3)cc2)ccn1 (stereo not drawn) — IC50 (Huh-7; cell growth or viability, MTT; 72 h): 10.8 µM
O=C(Nc1ccc(Br)cc1)c1cc(Br)cc(Br)c1O — IC50 (patient-derived fibroblasts; cell growth, PrestoBlue; 72 h): 9.1 µM
C1=C[N]2c3c4c(ccc3=C1)=CC=C[N]4[Ru+2]213([N]2C=CC=c4ccc5c(c42)[N]1C=CC=5)[N]1C=CC=c2c1c1c(c4nc5c6cccnc6c6ncccc6c5nc24)=CC=C[N]13 — IC50 (NCI-H358; cell growth or viability, MTT; 96 h): 44 µM
NC1CCCCC1N.O=C1[O][Pt]([O]C(=O)c2ccc(P(c3ccccc3)c3ccccc3)cc2)([O]C(=O)c2ccc(P(c3ccccc3)c3ccccc3)cc2)[O]C1=O.[Cl][Au].[Cl][Au] — IC50 (CAKI-1; cell growth or viability, resazurin; 72 h): 3.01 µM
C1CCN(C2CCNCC2)CC1.CCCC(CCC)C(=O)[O][Pt]([OH])([Cl])[Cl].CCCCN — IC50 (A-375; cytotoxicity; 72 h): 12.4 ± 2.93 µM
CC1=CC(C)=[N+]2C1=Cc1ccc(CCC(=O)NCC3C[NH][Pt]([Cl])([Cl])[NH]3)n1[B-]2(F)F (stereo not drawn) — IC50 (CP.5 spheroids in 3D Matrigel; cytotoxicity, CellTiter-Glo; 4 days, pre-grown 4 days): 300 ± 92.2 µM
[CH3][Ti+2][O]C(=O)c1ccc([S][Au][PH](c2ccccc2)(c2ccccc2)[c-]2cccc2)cc1.[Fe+2].c1cc[cH-]c1.c1cc[cH-]c1.c1cc[cH-]c1 — IC50 (CAKI-1; cell growth or viability, XTT; 72 h): 4.11 µM
Cc1cc(Nc2nc(C[C@@]3(C(=O)O)CCN(Cc4cccc(Cl)c4F)[C@H](C)C3)cc(C)c2F)[nH]n1 — IC50 (sensitive lung cancer lines; cell proliferation; mean): 0.068 µM
CNC(=O)c1cc(Oc2ccc(NC(=O)CCC(=O)OC3OC4OC5(C)CCC6C(C)CCC(C3C)C46OO5)cc2)ccn1 (stereo not drawn) — IC50 (Hep3B; cell growth or viability, MTT; 72 h): 24.6 µM
C[C@@H](O)[C@H](NC(=O)[C@H](CCCNC(=N)N)NC(=O)[C@H](CCCNC(=N)N)NC(=O)[C@H](CCCNC(=N)N)NC(=O)[C@@H]1CCCN1C(=O)[C@@H](N)CO)C(=O)N1CCC[C@H]1C(=O)N[C@@H](CO)C(=O)N1CCC[C@H]1C(=O)N[C@@H](CCCNC(=N)N)C(=O)N[C@@H](CCCNC(=N)N)C(=O)N[C@@H](CCCNC(=N)N)C(=O)N[C@@H](CCCNC(=N)N)C(=O)N[C@@H](CO)C(=O)N[C@@H](CCC(N)=O)C(=O)N[C@@H](CO)C(=O)N1CCC[C@H]1C(=O)N[C@@H](CCCNC(=N)N)C(=O)N[C@@H](CCCNC(=N)N)C(=O)N[C@@H](CCCNC(=N)N)C(N)=O — IC50 (SK-BR-3; cell viability, CellTiter-Blue; 24 h, serum-free medium): > 100 µM
C#CCN[C@@H]1C=C[C@]2(O[C@H]([C@@H](CC)C(=O)[C@@H](C)[C@@H](O)[C@H](C)[C@@H]3O[C@@H]([C@@H](CC)C(=O)O)CC[C@@H]3C)[C@@H](C)C[C@H]2C)O[C@@]12CC[C@@](C)([C@H]1CC[C@](O)(CC)[C@H](C)O1)O2 — IC50 (HMLER CD24low/CD44high; cell proliferation; 72 h): 0.13 ± 0.01 µM
NC(=O)N/N=C/c1ccc(OCc2ccccc2)cc1 — IC50 (IMR-32; cell growth or viability, MTT; 24 h): 11.3 µg/mL
CNC(=O)c1cc(Oc2ccc(NC(=O)c3ccc(-c4cccc(COC(=O)CCC(=O)OC5OC6OC7(C)CCC8C(C)CCC(C5C)C68OO7)c4)cn3)cc2)ccn1 (stereo not drawn) — IC50 (Hep3B; cell growth or viability, MTT; 72 h): 5.35 µM
[Cl][Au].[Se]=c1n(C2CCCCC2)ccn1C1CCCCC1 — IC50 (A-375; cell growth or viability, MTT; 72 h): 0.4 µM
C[C@H]1C(OCCCCCCCC[P+](c2ccccc2)(c2ccccc2)c2ccccc2)O[C@@H]2O[C@@]3(C)CCC4[C@H](C)CCC1[C@]42OO3 (stereo partly drawn) — IC50 (OVCAR-3; cell growth or viability, MTT; 72 h): 0.0998 µM
C[C@H]1COc2c(N3CCN(C)CC3)c(F)cc3c(=O)c(C(=O)N[C@@H](CCCNC(=N)N)C(=O)N[C@@H](Cc4ccc(-c5ccccc5)cc4)C(=O)N[C@@H](CCCNC(=N)N)C(=O)N[C@@H](Cc4ccc(-c5ccccc5)cc4)C(=O)N[C@@H](CCCNC(=N)N)C(N)=O)cn1c23 — IC50 (MDCK; cell growth or viability, MTT): 88.3 µM
O=C(O)c1ccc([PH]([Au][Cl])(c2ccccc2)c2ccccc2)cc1 — IC50 (CAKI-1; cell growth or viability, resazurin; 72 h): 45.7 µM
CC[C@H](C)[C@H](NC(=O)[C@H](CCCCN)NC(=O)[C@@H](NC(=O)[C@H](CCC(N)=O)NC(=O)[C@H](CCCNC(=N)N)NC(=O)[C@H](CC(C)C)NC(=O)CNC(=O)[C@H](Cc1ccccc1)NC(=O)CNC(=O)[C@H](Cc1ccc(O)cc1)NC(=O)CNC(=O)[C@H](CCCCN)NC(=O)[C@@H](NC(=O)[C@H](Cc1ccccc1)NC(=O)[C@@H](NC(=O)[C@H](CC(=O)O)NC(=O)[C@@H](N)CCCNC(=N)N)C(C)C)[C@@H](C)O)[C@@H](C)CC)C(=O)N[C@@H](Cc1c[nH]c2ccccc12)C(=O)N[C@@H](Cc1ccccc1)C(=O)N[C@@H](CCC(N)=O)C(=O)N[C@@H](CC(N)=O)C(=O)N[C@@H](CCCNC(=N)N)C(=O)N[C@@H](CCCNC(=N)N)C(=O)N[C@@H](CCSC)C(=O)N[C@@H](CCCCN)C(=O)N[C@@H](Cc1c[nH]c2ccccc12)C(=O)N[C@@H](CCCCN)C(=O)N[C@@H](CCCCN)C(=O)O — IC50 (CLL patient PBMCs; cell death, PI staining flow cytometry; 90 min, room temperature, serum-free medium): 2.2 µM
Cc1nn(-c2ccccc2)c(O)c1C(c1ccccc1O)c1c(C)nn(-c2ccccc2)c1O — IC50 (Ishikawa; cell growth or viability, MTT; 48 h): > 40 µM
CCC(C)C1OC(=O)C(NC(=O)c2cccc(NC=O)c2O)C(C)OC(=O)C(C(C)CC)OC(=O)C(C)(C)C(O)C(Cc2ccccc2)OC1=O (stereo not drawn) — IC50 (PC-9; cell growth or viability, CCK-8; 72 h): 0.0051 µM
CC[C@H](C)[C@H](NC(=O)CNC(=O)[C@H](C)NC(=O)[C@@H]1CCCN1C(=O)CNC(=O)[C@H](C)NC(=O)[C@H](CCC(=O)O)NC(=O)[C@@H]1CCCN1C(=O)[C@H](CC(=O)O)NC(=O)[C@H](C)NC(=O)[C@H](CCC(=O)O)NC(=O)[C@H](C)NC(=O)[C@H](CC(=O)O)NC(=O)[C@H](C)NC(=O)[C@H](CCC(=O)O)NC(=O)[C@H](C)NC(=O)[C@H](CCC(=O)O)NC(=O)[C@@H]1CCCN1C(=O)[C@@H](N)CCC(=O)O)C(=O)NCC(=O)N[C@@H](C)C(=O)N[C@H](C(=O)N[C@@H](CC(C)C)C(=O)N[C@@H](CCCCN)C(=O)N[C@H](C(=O)N[C@@H](CC(C)C)C(=O)N[C@H](C(=O)N[C@H](C(=O)NCC(=O)N[C@@H](CC(C)C)C(=O)N1CCC[C@H]1C(=O)N[C@@H](C)C(=O)N[C@@H](CC(C)C)C(=O)N[C@H](C(=O)N[C@@H](CO)C(=O)N[C@@H](Cc1c[nH]c2ccccc12)C(=O)N[C@H](C(=O)N[C@@H](CCCCN)C(=O)N[C@@H](CCCNC(=N)N)C(=O)N[C@@H](CCCCN)C(=O)N[C@@H](CCCNC(=N)N)C(=O)N[C@@H](CCC(N)=O)C(=O)N[C@@H](CCC(N)=O)C(N)=O)[C@@H](C)CC)[C@@H](C)CC)[C@@H](C)O)[C@@H](C)O)C(C)C)C(C)C — IC50 (MCF7 FAP-transfected; cell viability, MTT; 72 h): 18.9 ± 1.7 µM
Cc1cc(C)c(S(=O)(=O)N2CC2C(N)=O)c(C)c1 (stereo not drawn) — IC50 (Caco-2; cell growth or viability, MTT; 48 h): 236 µM
CC(C)OC(=O)C(n1cccn1)n1cccn1.F[P-](F)(F)(F)(F)F.[Cu+].c1ccc(P(c2ccccc2)c2ccccc2)cc1 — IC50 (U-1285; cell viability, MTT): 6.8 ± 0.8 µM

For quick reference, copied from above:
CC[C@H](C)[C@H](NC(=O)[C@H](CCCCN)NC(=O)[C@@H](NC(=O)[C@H](CCC(N)=O)NC(=O)[C@H](CCCNC(=N)N)NC(=O)[C@H](CC(C)C)NC(=O)CNC(=O)[C@H](Cc1ccccc1)NC(=O)CNC(=O)[C@H](Cc1ccc(O)cc1)NC(=O)CNC(=O)[C@H](CCCCN)NC(=O)[C@@H](NC(=O)[C@H](Cc1ccccc1)NC(=O)[C@@H](NC(=O)[C@H](CC(=O)O)NC(=O)[C@@H](N)CCCNC(=N)N)C(C)C)[C@@H](C)O)[C@@H](C)CC)C(=O)N[C@@H](Cc1c[nH]c2ccccc12)C(=O)N[C@@H](Cc1ccccc1)C(=O)N[C@@H](CCC(N)=O)C(=O)N[C@@H](CC(N)=O)C(=O)N[C@@H](CCCNC(=N)N)C(=O)N[C@@H](CCCNC(=N)N)C(=O)N[C@@H](CCSC)C(=O)N[C@@H](CCCCN)C(=O)N[C@@H](Cc1c[nH]c2ccccc12)C(=O)N[C@@H](CCCCN)C(=O)N[C@@H](CCCCN)C(=O)O — IC50 (CLL patient PBMCs; cell death, PI staining flow cytometry; 90 min, room temperature, serum-free medium): 2.2 µM
Cc1nn(-c2ccccc2)c(O)c1C(c1ccccc1O)c1c(C)nn(-c2ccccc2)c1O — IC50 (Ishikawa; cell growth or viability, MTT; 48 h): > 40 µM
CCC(C)C1OC(=O)C(NC(=O)c2cccc(NC=O)c2O)C(C)OC(=O)C(C(C)CC)OC(=O)C(C)(C)C(O)C(Cc2ccccc2)OC1=O (stereo not drawn) — IC50 (PC-9; cell growth or viability, CCK-8; 72 h): 0.0051 µM
CC[C@H](C)[C@H](NC(=O)CNC(=O)[C@H](C)NC(=O)[C@@H]1CCCN1C(=O)CNC(=O)[C@H](C)NC(=O)[C@H](CCC(=O)O)NC(=O)[C@@H]1CCCN1C(=O)[C@H](CC(=O)O)NC(=O)[C@H](C)NC(=O)[C@H](CCC(=O)O)NC(=O)[C@H](C)NC(=O)[C@H](CC(=O)O)NC(=O)[C@H](C)NC(=O)[C@H](CCC(=O)O)NC(=O)[C@H](C)NC(=O)[C@H](CCC(=O)O)NC(=O)[C@@H]1CCCN1C(=O)[C@@H](N)CCC(=O)O)C(=O)NCC(=O)N[C@@H](C)C(=O)N[C@H](C(=O)N[C@@H](CC(C)C)C(=O)N[C@@H](CCCCN)C(=O)N[C@H](C(=O)N[C@@H](CC(C)C)C(=O)N[C@H](C(=O)N[C@H](C(=O)NCC(=O)N[C@@H](CC(C)C)C(=O)N1CCC[C@H]1C(=O)N[C@@H](C)C(=O)N[C@@H](CC(C)C)C(=O)N[C@H](C(=O)N[C@@H](CO)C(=O)N[C@@H](Cc1c[nH]c2ccccc12)C(=O)N[C@H](C(=O)N[C@@H](CCCCN)C(=O)N[C@@H](CCCNC(=N)N)C(=O)N[C@@H](CCCCN)C(=O)N[C@@H](CCCNC(=N)N)C(=O)N[C@@H](CCC(N)=O)C(=O)N[C@@H](CCC(N)=O)C(N)=O)[C@@H](C)CC)[C@@H](C)CC)[C@@H](C)O)[C@@H](C)O)C(C)C)C(C)C — IC50 (MCF7 FAP-transfected; cell viability, MTT; 72 h): 18.9 ± 1.7 µM
